Measured values of several laboratories.
Each numbered part is a random draw from the data of one study; scales do not carry over between parts. Changes are numbered by the printed parent chain.
Chain of UniProt P28335 (whole entry, looked up): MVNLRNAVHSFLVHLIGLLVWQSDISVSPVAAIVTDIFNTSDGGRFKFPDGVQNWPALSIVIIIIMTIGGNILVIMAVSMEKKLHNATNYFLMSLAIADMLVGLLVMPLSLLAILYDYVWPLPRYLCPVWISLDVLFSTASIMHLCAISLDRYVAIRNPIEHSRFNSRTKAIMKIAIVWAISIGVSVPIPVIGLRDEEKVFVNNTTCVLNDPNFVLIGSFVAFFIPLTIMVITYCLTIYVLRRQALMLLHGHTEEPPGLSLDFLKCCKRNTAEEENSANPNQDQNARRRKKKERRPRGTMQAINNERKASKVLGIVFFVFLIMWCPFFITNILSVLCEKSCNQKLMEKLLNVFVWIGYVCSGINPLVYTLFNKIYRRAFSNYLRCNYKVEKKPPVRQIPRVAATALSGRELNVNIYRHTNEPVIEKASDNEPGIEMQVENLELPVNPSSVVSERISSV

Study 1
Target: CCNE2, cyclin fold, Cln2 fusion (human)
Technique: yeast growth competition, sequencing
Matrix: yeast
Setting: strong parent motif
Reference: not given
Direction: higher = stronger binding
Quantity: normalised enrichment score
Starting sequence: viral docking peptide; KGVKRKLFAEDSS
K4R: 7.67
A9F: 6.48
A9G: 5.98
F8L: 0.263
G2A: 5.76
S12G: 6.26
E10F: 4.75
A9Y: 6.32

Study 2
Target: UDP-N-acetylglucosamine--peptide N-acetylglucosaminyltransferase 110 kDa subunit (OGT, Homo sapiens, UniProt O15294)
Effect on: binding
Technique: phage display NGS
Form: peptide
Reference: input library
Quantity: minimum log2 enrichment ratio
Target sequence (O15294 1-1046): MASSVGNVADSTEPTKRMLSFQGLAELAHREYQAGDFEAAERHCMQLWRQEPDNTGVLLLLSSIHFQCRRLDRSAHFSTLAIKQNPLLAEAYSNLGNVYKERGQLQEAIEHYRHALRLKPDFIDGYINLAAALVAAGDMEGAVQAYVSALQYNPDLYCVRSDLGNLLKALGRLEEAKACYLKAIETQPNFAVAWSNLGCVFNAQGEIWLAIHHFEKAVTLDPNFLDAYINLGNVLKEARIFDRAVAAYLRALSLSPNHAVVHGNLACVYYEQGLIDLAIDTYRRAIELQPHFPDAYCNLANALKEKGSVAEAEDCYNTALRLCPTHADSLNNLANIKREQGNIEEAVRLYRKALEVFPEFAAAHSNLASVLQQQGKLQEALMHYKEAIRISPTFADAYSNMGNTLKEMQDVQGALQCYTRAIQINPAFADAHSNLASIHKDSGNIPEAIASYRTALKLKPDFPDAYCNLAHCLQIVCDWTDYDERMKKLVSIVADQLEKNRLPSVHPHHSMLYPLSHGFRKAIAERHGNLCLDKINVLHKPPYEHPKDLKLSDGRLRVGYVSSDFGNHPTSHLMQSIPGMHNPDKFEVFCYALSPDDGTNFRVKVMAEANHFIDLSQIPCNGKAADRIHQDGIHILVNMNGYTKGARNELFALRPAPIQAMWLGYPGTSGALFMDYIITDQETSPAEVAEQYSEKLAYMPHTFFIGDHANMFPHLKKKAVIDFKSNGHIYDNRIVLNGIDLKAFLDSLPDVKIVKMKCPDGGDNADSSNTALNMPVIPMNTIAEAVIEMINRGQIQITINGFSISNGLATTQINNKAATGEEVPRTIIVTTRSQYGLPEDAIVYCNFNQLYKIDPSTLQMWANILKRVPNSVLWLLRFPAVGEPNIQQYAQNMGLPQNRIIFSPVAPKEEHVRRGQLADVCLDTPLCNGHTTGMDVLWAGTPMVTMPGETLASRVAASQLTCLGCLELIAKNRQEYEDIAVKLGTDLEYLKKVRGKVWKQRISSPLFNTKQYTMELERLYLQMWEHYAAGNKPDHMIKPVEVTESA
HNVEPMHHNHSARPY: 2.92
HWDHWQHTINHNVDG: 2.9
HSWYGPTHHSVHDTT: 2.4
LISVPPQYQIRYWKD: 3.79
EFFPPAYQLVVPYGD: 3.23
GMEPYHPVYQIVTNN: 1.74
RDTEIIFLPQYIIGY: 3.9
FYPPVYQIQQSWVAS: 3.72

Study 3
Target: vanadate, free oxyanion
Technique: microfluidic competitive inhibition
Matrix: in vitro, cell-free expressed
Tested at: not given
Setting: derived from inhibition constants, unchanged parent 676 nM
Direction: lower = stronger binding
Quantity: oxyanion analog dissociation constant
Starting sequence: PafA, mature enzyme, eGFP fusion (Elizabethkingia meningoseptica, UniProt Q9KJX5); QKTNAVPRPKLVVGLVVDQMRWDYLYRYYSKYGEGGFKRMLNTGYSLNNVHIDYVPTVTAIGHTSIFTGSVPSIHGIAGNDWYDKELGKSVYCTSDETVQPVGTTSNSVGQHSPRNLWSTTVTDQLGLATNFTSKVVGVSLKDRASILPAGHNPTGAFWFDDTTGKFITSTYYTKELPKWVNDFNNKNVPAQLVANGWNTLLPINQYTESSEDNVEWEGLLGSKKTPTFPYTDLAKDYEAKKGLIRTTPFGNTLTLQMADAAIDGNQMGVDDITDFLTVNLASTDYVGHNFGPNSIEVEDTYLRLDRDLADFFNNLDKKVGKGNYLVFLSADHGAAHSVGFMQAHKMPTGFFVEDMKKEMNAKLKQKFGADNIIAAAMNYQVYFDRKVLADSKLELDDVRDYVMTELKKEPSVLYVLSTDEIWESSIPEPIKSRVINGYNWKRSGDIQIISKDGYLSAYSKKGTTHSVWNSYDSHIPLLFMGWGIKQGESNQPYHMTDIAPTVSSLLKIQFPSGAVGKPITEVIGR
F313V: 710 nM
A500V: 931 nM
I61G: 381 nM
F291G: 468 nM
F167V: 917 nM
E212G: 575 nM
D317V: 2.76 µM
A515V: 708 nM

Other studies, line by line
O=C(NCc1ncc(C(F)(F)F)cc1Cl)c1ccc2c(c1)C1(CCS(=O)(=O)CC1)[C@@H](C1CC1)N2S(=O)(=O)c1ccc(F)cc1 — inhibition (5-hydroxytryptamine receptor 2C (HTR2C, Homo sapiens, UniProt P28335); ligand displacement; 10 µM): 16.9%

Some of these lines once more (study 3):
F167V: 917 nM
F291G: 468 nM
I61G: 381 nM
A500V: 931 nM
